Assay results from different studies.
Lines come from different studies, so protocols differ. ± marks the error that the study gave. In brackets after ≈: the same amount, converted by molar mass.

| Structure (SMILES) | target | test | system | setting | how to read | endpoint | result |
| --- | --- | --- | --- | --- | --- | --- | --- |
| Cc1ccc(N2CC3CCC(C2)N3C)cc1C(=O)N[C@H](C)c1cc(-c2cnn(C)c2)nc2ccccc12 | trypsin | enzyme activity | – | concentration not given | – | inhibition | no inhibition |
| CC(C)CS[C@H]1[C@H](O)[C@@H](N)[C@@H](O[C@H]2[C@H](O[C@@H]3O[C@H](CO)[C@@H](O[C@H]4O[C@@H](CN)[C@@H](O)[C@H](O)[C@H]4N)[C@H]3O)[C@@H](O)[C@H](N)C[C@@H]2N)O[C@@H]1CO | bacterial hybrid ribosome, human mitochondrial A1555G A site | cell-free translation | – | – | reference: A1555G hybrid over wild-type bacterial | selectivity ratio | 1500 |
| Cc1cc(Nc2cc(CN(C)C)cc(NC(=O)c3cc(CN(C)C)cc(Nc4ccnc5ccccc45)c3)c2)nc(N)n1 | human DNA polymerase theta | inhibitor | – | 50 µM | – | inhibition | ~75% |
| C[C@H](N)C(=O)N[C@@H](CO)C(=O)N[C@@H](C)C(=O)N[C@H]1CSC(=O)[C@H](Cc2ccccc2)NC(=O)[C@H](Cc2ccc(O)cc2)NC(=O)[C@H](C)NC(=O)[C@H](C)NC1=O | AgrC-II | inhibitor, GFP reporter | Staphylococcus epidermidis, agr group-II reporter | 100 nM | – | AgrC-II activity | inhibited |
| CC[C@@H]1CN2CCc3c([nH]c4cccc(OC)c34)[C@@H]2C[C@@H]1/C(=C\OC)C(=O)OC | anti-compound rabbit polyclonal IgG | antibody binding, competitive indirect ELISA | – | antibody pre-incubated with standard | – | IC50 | 3.13 µg/mL (≈ 7.86 µM) |
| Cc1cc(C(=O)NCCc2ccc(-c3ccccc3)cc2)cc(C)c1C[C@H](N)C(=O)N1Cc2ccccc2C[C@H]1C(=O)O | mu opioid receptor, guinea pig | antagonist | guinea pig ileum | – | – | Ke | 2910 ± 570 nM |
| CCCCCCCCC(=O)NCc1ccc(O)c(OC)c1 | mouse mAb 1-G12 | antibody binding, indirect competitive ELISA | – | with: coating antigen 6-OVA | – | IC50 | 0.252 µg/mL (≈ 0.858 µM) |
| CC[S+]([O-])C1C(CO)OC(OC2C(N)CC(N)C(O)C2OC2OC(CO)C(OC3OC(CN)C(O)C(O)C3N)C2O)C(N)C1O (mixture of isomers) | bacterial hybrid ribosome, human cytoplasmic A site | cell-free translation | – | – | reference: cytoplasmic hybrid over wild-type bacterial | selectivity ratio | 246 |
| COc1ccc(S(=O)(=O)n2nc(OC(=O)c3ccccc3)cc2N)cc1 | dengue virus 2 protease S135A | ESI-TOF MS | – | 20 µM, 1 h, 25 °C | reference: DMSO control | protein mass shift | 0 Da |
| O=C(Oc1nsnc1N1CCOCC1)N1CCOCC1 | trypsin | enzyme activity, inhibitor, gel-based | – | up to 300 µM, with: denatured BSA substrate | – | inhibition | no inhibition |
| Nc1c2c([n+](CCCCCCCCCC[n+]3c4c(c(N)c5ccccc53)CCC4)c3ccccc13)CCC2 | HIV-1 92UG024.2 Env MPER-TMD | – | – | concentration not given, residues 660-710 | – | NMR peak intensity decrease | 40 to 60% |
| CC(=O)N[C@H]1CSC(=O)[C@H](CC(C)C)NC(=O)[C@H](Cc2ccc(O)cc2)NC(=O)[C@H](CC(N)=O)NC(=O)[C@H](CO)NC1=O | AgrC-II | GFP reporter | Staphylococcus epidermidis, agr group-II reporter | 10 µM | – | inhibition | ~75% |
| CC(C)C[C@H](NC(=O)[C@H](Cc1ccc(OP(=O)(O)O)cc1)NC(=O)[C@H](CCC(=O)O)NC(=O)[C@H](CC(=O)O)NC(=O)[C@H](C)NC(=O)[C@H](CC(=O)O)NC(=O)[C@@H](NC(=O)CCCCCNC(=O)CCCC[C@@H]1SC[C@@H]2NC(=O)N[C@@H]21)C(C)C)C(N)=O | human DUSP22 | – | – | – | – | dephosphorylation | 6% |
| Cc1cc(Nc2nc(C[C@@]3(C(=O)O)CCN(Cc4cccc(Cl)c4F)[C@H](C)C3)cc(C)c2F)[nH]n1 | Aurora kinase A | phosphorylation, refers to: p-AURKA Thr288 | mouse, NCI-H446 xenograft, tumour | oral, 10 mg/kg, up to 12 h | – | inhibition | ~80% |
| CC/C(=C\CC[C@H](C)C[C@@H](C)CC[C@H](O)[C@H](C)C(=O)CC(O)[C@H](C)[C@@H](C)OC(=O)C[C@@H](O)C1=C(C)C(=O)OC1=O)C(O)CC(=O)O (some centres unmarked) | PP1 (human) | enzyme activity | MCF7 | 50 µM, 4 h | reference: untreated | inhibition | 60% |
| O=C(N[C@@H](Cn1cncn1)c1ccc(Cl)cc1Cl)c1ccc(-c2nnc(-c3ccccc3)o2)cc1 | Leishmania infantum CYP51 | – | – | concentration not given | – | remaining activity | 17 ± 1.2% |
| CCS(=O)(=O)[C@H]1[C@H](O)[C@@H](N)[C@@H](O[C@H]2[C@H](O[C@@H]3O[C@H](CO)[C@@H](O[C@H]4O[C@@H](CN)[C@@H](O)[C@H](O)[C@H]4N)[C@H]3O)[C@@H](O)[C@H](N)C[C@@H]2N)O[C@@H]1CO | bacterial hybrid ribosome, human mitochondrial A1555G A site | cell-free translation | – | – | reference: A1555G hybrid over wild-type bacterial | selectivity ratio | 21 |
| CC(=O)N1c2ccc(-c3ccc(C(=O)NCCN4CC(N5CCN(CC(=O)N[C@H](C(=O)N6C[C@H](O)C[C@H]6C(=O)NCc6ccc(-c7scnc7C)cc6)C(C)(C)C)CC5)C4)cc3)cc2[C@H](Nc2ccc(Cl)cc2)C[C@@H]1C | Spodoptera frugiperda BRD3 | degrader, targeted LC-MS | Sf9 | 1 µM, 24 h | – | degradation | 74% |
| NC[C@@H]1O[C@H](O[C@H]2[C@@H](O)[C@H](O[C@@H]3[C@@H](O)[C@H](N)C[C@H](N)[C@H]3O[C@H]3O[C@H](CO)[C@@H](CCO)[C@H](O)[C@H]3N)O[C@@H]2CO)[C@H](N)[C@@H](O)[C@@H]1O | bacterial hybrid ribosome, human mitochondrial A1555G A site | cell-free translation | – | – | reference: A1555G hybrid over wild-type bacterial | selectivity ratio | 833 |
| CC(C)CC(C)N1CCn2cc(C(=O)NCc3ccc(F)cc3F)c(=O)c(O)c2C1=O (centres unmarked) | HIV-1 integrase wild type | viral replication | HOS, HIV-1 | single-round vector | – | EC50 | 6 ± 1.2 nM |
| NC[C@@H]1O[C@H](O[C@H]2[C@@H](O)[C@H](O[C@@H]3[C@@H](O)[C@H](N)C[C@H](N)[C@H]3O[C@H]3O[C@H](CO)[C@@H](SCCF)[C@H](O)[C@H]3N)O[C@@H]2CO)[C@H](N)[C@@H](O)[C@@H]1O | bacterial hybrid ribosome, human mitochondrial A site | cell-free translation | – | – | reference: mitochondrial hybrid over wild-type bacterial | selectivity ratio | 1700 |
| CCCCCCCCCCCCCCCC(=O)NCCCC[C@H](NC(=O)[C@H](CCCNC(=N)N)NC(=O)[C@H](Cc1ccc(O)cc1)NC(=O)[C@H](CC(C)C)NC(=O)[C@H](CCCNC(=N)N)NC(=O)CNS(=O)(=O)c1ccc(N)cc1)C(N)=O | Escherichia coli 70S ribosome | fluorescence quenching | – | – | reference: 70S ribosome over LPS | Stern-Volmer constant ratio | ~30 fold |
| CC(C)S[C@H]1[C@H](O)[C@@H](N)[C@@H](O[C@H]2[C@H](O[C@@H]3O[C@H](CO)[C@@H](O[C@H]4O[C@@H](CN)[C@@H](O)[C@H](O)[C@H]4N)[C@H]3O)[C@@H](O)[C@H](N)C[C@@H]2N)O[C@@H]1CO | bacterial hybrid ribosome, human mitochondrial A1555G A site | cell-free translation | – | – | reference: A1555G hybrid over wild-type bacterial | selectivity ratio | 1250 |
| Cc1ncsc1-c1ccc(CNC(=O)[C@@H]2C[C@@H](O)CN2C(=O)[C@@H](NC(=O)Cc2ccc(-c3ccc(CNC(=O)c4cc5c(cc4CS(C)(=O)=O)-c4cn(C)c(=O)c6[nH]cc(c46)CN5c4ncc(F)cc4F)cc3)cc2)C(C)(C)C)cc1 | Spodoptera frugiperda BRD3 | degrader, targeted LC-MS | Sf9 | 1 µM, 24 h | – | degradation | > 85% |
| CCCS[C@H]1[C@H](O)[C@@H](N)[C@@H](O[C@H]2[C@H](O[C@@H]3O[C@H](CO)[C@@H](O[C@H]4O[C@@H](CN)[C@@H](O)[C@H](O)[C@H]4N)[C@H]3O)[C@@H](O)[C@H](N)C[C@@H]2N)O[C@@H]1CO | bacterial hybrid ribosome, human mitochondrial A1555G A site | cell-free translation | – | – | reference: A1555G hybrid over wild-type bacterial | selectivity ratio | 1570 |
| CC(C)C[C@H](NC(=O)[C@H](C)NC(=O)[C@H](CCCCN)NC(=O)[C@H](CCCNC(=N)N)NC(=O)[C@H](CCC(=O)O)NC(=O)[C@H](C)NC(=O)[C@H](CCC(=O)O)NC(=O)[C@H](CCCCN)NC(=O)[C@H](CCCCN)NC(=O)[C@H](CC(=O)O)NC(=O)[C@H](Cc1c[nH]cn1)NC(=O)[C@H](CC(=O)O)NC(=O)[C@H](Cc1c[nH]cn1)NC(=O)[C@H](CCCNC(=N)N)NC(=O)[C@H](CCC(=O)O)NC(=O)[C@H](CO)NC(=O)[C@H](CCCCN)NC(=O)[C@H](CC(C)C)NC(=O)[C@H](CCCNC(=N)N)NC(=O)[C@H](CCC(=O)O)NC(=O)[C@H](CC(C)C)NC(=O)[C@H](CCC(=O)O)NC(=O)[C@H](C)NC(=O)[C@H](CCC(=O)O)NC(=O)[C@H](CCC(=O)O)NC(=O)[C@H](Cc1c[nH]cn1)NC(=O)[C@H](CCCNC(=N)N)NC(=O)[C@H](CCC(=O)O)NC(=O)[C@H](CC(N)=O)NC(=O)[C@H](CCCCN)NC(=O)[C@H](CC(C)C)NC(=O)[C@H](CCCNC(=N)N)NC(=O)[C@H](CCC(N)=O)NC(=O)[C@H](CC(C)C)NC(=O)[C@H](CCC(=O)O)NC(=O)[C@H](C)NC(=O)[C@H](CC(=O)O)NC(=O)[C@H](C)NC(=O)[C@@H](NC(=O)[C@H](CC(C)C)NC(=O)[C@H](CCCCN)NC(=O)[C@H](CCC(=O)O)NC(=O)[C@@H](NC(=O)[C@H](CO)NC(=O)CN)C(C)C)[C@@H](C)O)C(=O)N[C@@H](CCC(=O)O)C(=O)N[C@@H](CC(=O)O)C(=O)N[C@@H](CCCCN)C(=O)N[C@@H](CC(C)C)C(=O)N[C@@H](C)C(=O)N[C@@H](CC(=O)O)C(=O)N[C@@H](Cc1ccc(O)cc1)C(=O)O | human K2 plasminogen complex | analytical ultracentrifugation | – | pH 7.4, 25 °C | – | molecular mass | 27300 ± 850 Da |

Some of these lines once more:
| Structure (SMILES) | target | test | system | setting | how to read | endpoint | result |
| --- | --- | --- | --- | --- | --- | --- | --- |
| Cc1cc(Nc2cc(CN(C)C)cc(NC(=O)c3cc(CN(C)C)cc(Nc4ccnc5ccccc45)c3)c2)nc(N)n1 | human DNA polymerase theta | inhibitor | – | 50 µM | – | inhibition | ~75% |
| C[C@H](N)C(=O)N[C@@H](CO)C(=O)N[C@@H](C)C(=O)N[C@H]1CSC(=O)[C@H](Cc2ccccc2)NC(=O)[C@H](Cc2ccc(O)cc2)NC(=O)[C@H](C)NC(=O)[C@H](C)NC1=O | AgrC-II | inhibitor, GFP reporter | Staphylococcus epidermidis, agr group-II reporter | 100 nM | – | AgrC-II activity | inhibited |
| CC[C@@H]1CN2CCc3c([nH]c4cccc(OC)c34)[C@@H]2C[C@@H]1/C(=C\OC)C(=O)OC | anti-compound rabbit polyclonal IgG | antibody binding, competitive indirect ELISA | – | antibody pre-incubated with standard | – | IC50 | 3.13 µg/mL (≈ 7.86 µM) |
| Cc1cc(C(=O)NCCc2ccc(-c3ccccc3)cc2)cc(C)c1C[C@H](N)C(=O)N1Cc2ccccc2C[C@H]1C(=O)O | mu opioid receptor, guinea pig | antagonist | guinea pig ileum | – | – | Ke | 2910 ± 570 nM |
